Published values gathered from unrelated publications.
Protocols differ between the studies behind these lines. Values joined by “and” are separate records of one study, mostly repeats; a detail may differ.
Sequence of UniProt P20813 (whole entry, looked up): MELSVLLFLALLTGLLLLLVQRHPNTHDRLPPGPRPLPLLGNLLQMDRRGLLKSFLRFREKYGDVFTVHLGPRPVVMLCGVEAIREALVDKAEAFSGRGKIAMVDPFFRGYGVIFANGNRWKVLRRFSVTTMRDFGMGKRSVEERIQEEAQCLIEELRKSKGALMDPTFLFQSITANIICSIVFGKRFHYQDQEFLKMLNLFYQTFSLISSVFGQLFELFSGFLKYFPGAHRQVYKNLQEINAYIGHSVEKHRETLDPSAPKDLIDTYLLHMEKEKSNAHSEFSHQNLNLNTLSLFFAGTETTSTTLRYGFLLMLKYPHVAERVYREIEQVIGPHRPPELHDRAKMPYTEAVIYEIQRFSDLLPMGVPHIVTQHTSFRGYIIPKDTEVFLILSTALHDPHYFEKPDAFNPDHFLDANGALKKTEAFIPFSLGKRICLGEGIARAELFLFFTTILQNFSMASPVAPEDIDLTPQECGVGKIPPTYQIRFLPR

Under “log2 fold change”, Cc1ncsc1-c1ccc(C(C)NC(=O)C2CC(O)CN2C(=O)C(NC(=O)CCCCCCCCCCN2CCCC(Nc3ncc(Cl)c(Nc4ccccc4S(=O)(=O)C(C)C)n3)C2)C(C)(C)C)cc1 (stereo not drawn) is recorded as -1.48 (22Rv1; RNA-seq, measured: PRELID3A mRNA; concentration not given; baseline: DMSO).
For COC1CN([C@H]2CC[C@H]([C@@]3(C)Oc4c(Cl)cc(C(=O)NCc5c(SC)cc(C)[nH]c5=O)c(C)c4O3)CC2)C1, “log2 fold change” read 1.2 (RNA-seq, measured: ELOVL6; human, whole blood; dose not given, 24 h; baseline: pretreatment baseline).
For CCCC[C@H](NC(C)=O)C(=O)N[C@@H](CO)C(=O)N[C@H](C(=O)N1CCC[C@H]1C(=O)N[C@]1(C)CCCCCCC=CCCC[C@@](C)(C(=O)N[C@@H](Cc2ccccc2)C(=O)N[C@@H](CCCCN)C(=O)N[C@@H](CCCNC(=N)N)C(=O)N[C@@H](CC(C)C)C(=O)N[C@@H](CCC(N)=O)C(N)=O)NC(=O)[C@H](CCCNC(=N)N)NC(=O)[C@H](CCCC)NC(=O)[C@H](CC(C)C)NC(=O)[C@H](CCCNC(=N)N)NC(=O)[C@H](CCCNC(=N)N)NC(=O)[C@H](CCCNC(=N)N)NC1=O)[C@@H](C)O, “remaining intact peptide” read 73.8% and 62.4% (proteinase K (Tritirachium album); proteolytic stability, LC-MS; 25 µM, 184.5 min, pH 7.4).
For COc1ccc2c(c1)C(C)(C)C(/C=C/C1=C(Oc3ccc(C(=O)NCCCCOc4cc(CN(Cc5ccccn5)Cc5ccccn5)cc(CN(Cc5ccccn5)Cc5ccccn5)c4)cc3)C(=C/C=C3/N(CCCCS(=O)(=O)[O-])c4ccc(OC)cc4C3(C)C)CCC1)=[N+]2CCCCS(=O)(=O)[O-].O=[N+]([O-])[O-].O=[N+]([O-])[O-].[99Tc+].[C-]#[O+].[C-]#[O+].[C-]#[O+].[Zn+2], the tissue uptake was 4.88 %ID/g (Staphylococcus aureus; BALB/c mice, bacterial myositis, small intestine with contents; 12 h).
For CC(C)(O)c1ncc([S@](N)(=O)=NC(=O)Nc2c3c(cc4c2CCC4)CCC3)s1, “subjects with adverse events” read 38% (measured: Gastrointestinal disorders; healthy human volunteers; oral, dose not given, 14 days, multiple dose, all active arms).
The viability of CN1CCCNC(=O)c2cccc(c2)C(=O)NCCCN(C)CCCNc2cccc3c2C(=O)c2cccc(c2C3=O)NCCC1 is reported as 50.5% (mouse bone marrow cells; CCK-8; 5 µM, 48 h; baseline: untreated).
CNS(=O)(=O)Nc1nccc(Cc2c(C)c3ccc(Oc4ncccc4F)cc3oc2=O)c1F has an IC50 of greater than 1000 nM (HARA; cell viability, CellTiter-Glo; 7 days).
Under “revertant fold increase”, O=C1C2CC3CC1CC(C(=O)N1CCN(c4ccc([N+](=O)[O-])c5ncccc45)CC1)(C3)C2 is recorded as 1.3 (Salmonella typhimurium; Ames test; TA98; 0.05 µg/well, without S9; baseline: vehicle).
CNC(=O)C1CCCN(C(=O)C2CC3CCC2N3C(=O)[C@@H]2C[C@@H](O)CN2C(=O)NCc2cccc(Cl)c2F)C1 (mixture of isomers) gave a remaining activity of 106% and 97.9% and 102% (Cytochrome P450 2B6 (CYP2B6, Homo sapiens, UniProt P20813); preincubation with NADPH; human; 0.0686 µM; baseline: negative control).
With CCN(CC)CC#CCNc1ccnc2cc(Cl)ccc12 the mean revertants was 10 revertants/well (Salmonella typhimurium; mini-Ames test; TA98; 62.5 µg/well, with rat liver S9).
For Nc1ncc(-c2cc(-c3cnn(CC(F)(F)F)c3)ncc2F)nc1C(=O)NC1CNCC(F)C1 (stereo not drawn), the remaining binding was 100% (EPHB4; KINOMEscan; 1 µM; baseline: DMSO control).
For CC(C)OCCOCc1ccc(OCC(O)CN(N=O)C(C)C)cc1 (stereo not drawn), “revertant fold increase” read 1.2 fold (Salmonella typhimurium; Ames test; TA100; 15.8 µg/plate, 30 % hamster S9; baseline: solvent control).

Repeated from above:
For Nc1ncc(-c2cc(-c3cnn(CC(F)(F)F)c3)ncc2F)nc1C(=O)NC1CNCC(F)C1 (stereo not drawn), the remaining binding was 100% (EPHB4; KINOMEscan; 1 µM; baseline: DMSO control).
